Experimental data from different studies.
Each line is one published result; not all experiments were run side by side. Several values in a cell are separate wells, animals, samples, runs or records. ± marks the error that the study gave.
Organism: Leishmania infantum

Structure (SMILES)	test	system	setting	scale	measurement	value
CCOC(=O)c1cn(CC(c2c[nH]c3cc(Br)ccc23)c2c[nH]c3cc(Br)ccc23)c(C)c1C(=O)OC		DH82, MHOM/TN/80/IPT1	72 h	reference: CC50 over IC50	selectivity index	1.7
O=[N+]([O-])/C=C/c1ccc(Br)o1	motility arrest	promastigotes	72 h, 26 °C		minimal parasiticidal concentration	2.3 ± 0.5 µM
CCOC(=O)c1c(C#N)c(-c2c[nH]c3cccc(Cl)c23)n(NC(=O)OC(C)(C)C)c1C	parasite growth		20 µM, 72 h, promastigote		inhibition	-15.6%
COC(=O)C1C(c2nc3ncccc3[nH]2)=Cc2cc3c(cc2C1c1cc(OC)c(OC)c(OC)c1)OCO3 (stereo not shown)	parasite growth		promastigote		EC50	47 µM
CCOC1=CC(=O)c2cc3c(cc2C1=O)CCCC3(C)C	parasite growth		72 h, promastigote		EC50	16.1 µM
CCOC(=O)c1c(C#N)c(-c2c[nH]c3cccc(OCc4ccccc4)c23)n(NC(=O)OC(C)(C)C)c1C	parasite growth		20 µM, 72 h, promastigote		inhibition	63% and > 40%
NNc1nnc(Cl)c2ccccc12	parasite growth, MTT		25 µM, promastigote		inhibition	18.6%
CCOC(=O)c1c(C(=O)OC)cn(CC(c2cn(C)c3ccccc23)c2cn(C)c3ccccc23)c1C		DH82, MHOM/TN/80/IPT1	72 h	reference: CC50 over IC50	selectivity index	> 55
CCNC1=CC(=O)c2cc3c(cc2C1=O)CCCC3(C)C	parasite growth		72 h, promastigote		EC50	19.9 µM
N=C(N)Nc1nc2cc(Cl)ccc2[nH]1	parasite growth		72 h, promastigote		EC50	> 20 µM
O=[N+]([O-])/C(Br)=C/c1ccco1	motility arrest	promastigotes	72 h, 26 °C		minimal parasiticidal concentration	9.2 ± 0.3 µM
NNc1n[nH]c(=O)c2ccccc12	parasite growth, MTT		25 µM, promastigote		inhibition	12.3%
CCOC(=O)c1c(C#N)c(-c2cn(C)c3cccc(OCc4ccccc4)c23)n(NC(=O)OC(C)(C)C)c1C	parasite growth		20 µM, 72 h, promastigote		inhibition	35.6%
COc1cc(C2c3cc4c(cc3C=C(C=O)C2C(=O)OCC=Cc2ccccc2)OCO4)cc(OC)c1OC (stereo not shown)	parasite growth		promastigote		EC50	9.3 µM
CCOC(=O)c1c(C#N)c(-c2c[nH]c3ccc(Br)cc23)n(NC(=O)OC(C)(C)C)c1C	parasite growth		20 µM, 72 h, promastigote		inhibition	-75.7%
C=CCOC(=O)C1C(C=O)=Cc2cc3c(cc2C1c1cc(OC)c(OC)c(OC)c1)OCO3 (stereo not shown)	parasite growth		promastigote		EC50	57 µM

Structure (SMILES)	test	system	setting	scale	measurement	value
COC1=CC(=O)c2cc3c(cc2C1=O)CCCC3(C)C		promastigotes		reference: HepG2 CC50 over promastigote EC50	selectivity index	3.9
CCCCCc1cn(CCCCCCCCCCCOP(=O)([O-])OCC[N+](C)(C)C)nn1	PI staining flow cytometry	promastigotes	concentration not given		activity	inactive
COC(=O)C1C(C=NO)=Cc2cc3c(cc2C1c1cc(OC)c(OC)c(OC)c1)OCO3 (stereo not shown)	intracellular amastigote growth, iRFP fluorescence	infected mouse splenocyte explants	48 h		EC50	59.4 ± 0.8 µM
Cc1ccc(N2Cc3cc(NC(=O)N4CCN(c5ccc(F)cc5)CC4)ccc3C2=O)cc1	parasite growth, imaging		intracellular, amastigote		IC50	32.5 µM
CCOC(=O)c1c(C#N)c(-c2c[nH]c3cc(F)ccc23)n(NC(=O)OC(C)(C)C)c1C	parasite growth		20 µM, 72 h, promastigote		inhibition	-29.8%
N=C(N)Nc1nc2cc(C(F)(F)F)ccc2[nH]1	parasite growth		72 h, promastigote		EC50	> 20 µM
O=C(Nc1ccc2c(c1)CN(c1ccc(Cl)c(Cl)c1)C2=O)N1CCN(c2ccccc2)CC1	parasite growth, Giemsa stain	primary peritoneal mouse macrophages, MHOM/MA(BE)/67 amastigotes	5 d		IC50	> 64 µM
CCOC(=O)c1c(C#N)c(-c2c[nH]c3cccc(C(=O)OC)c23)n(NC(=O)OC(C)(C)C)c1C	parasite growth		20 µM, 72 h, promastigote		inhibition	-13.9%
O=C(Nc1ccc2c(c1)CN(c1ccccc1)C2=O)N1CC[C@H](F)C1	parasite growth, Giemsa stain	primary peritoneal mouse macrophages, MHOM/MA(BE)/67 amastigotes	5 d		IC50	> 64 µM
CC(C)=CCCC1=CCC2=C(C1)C(=O)c1ccccc1C2=O	parasite growth		72 h, promastigote		EC50	18.2 µM
COc1cc(COC(=O)C2C(C=O)=Cc3cc4c(cc3C2c2cc(OC)c(OC)c(OC)c2)OCO4)cc(OC)c1OC (stereo not shown)	parasite growth		promastigote		EC50	14.5 µM
CC(C)=CCCC1=CCC2C(=O)c3ccccc3C(=O)C2C1 (stereo not shown)		promastigotes		reference: HepG2 CC50 over promastigote EC50	selectivity index	1.2
COC(=O)C1C(C=NN=CC2=Cc3cc4c(cc3C(c3cc(OC)c(OC)c(OC)c3)C2C(=O)OC)OCO4)=Cc2cc3c(cc2C1c1cc(OC)c(OC)c(OC)c1)OCO3 (stereo not shown)	parasite growth		promastigote		EC50	> 100 µM
CC(=O)Oc1ccc(OC(C)=O)c2c1CC1=C(C2)C(C)(C)CCC1		promastigotes		reference: HepG2 CC50 over promastigote EC50	selectivity index	2.3
COC(=O)C1C(c2nc3cc(OC)ccc3[nH]2)=Cc2cc3c(cc2C1c1cc(OC)c(OC)c(OC)c1)OCO3 (stereo not shown)	parasite growth	mouse Splenocyte	48 h, intracellular, amastigote		EC50	7.3 µM

Some of these lines once more:
Structure (SMILES)	test	system	setting	scale	measurement	value
N=C(N)Nc1nc2cc(Cl)ccc2[nH]1	parasite growth		72 h, promastigote		EC50	> 20 µM
NNc1nnc(Cl)c2ccccc12	parasite growth, MTT		25 µM, promastigote		inhibition	18.6%
CCCCCc1cn(CCCCCCCCCCCOP(=O)([O-])OCC[N+](C)(C)C)nn1	PI staining flow cytometry	promastigotes	concentration not given		activity	inactive
O=C(Nc1ccc2c(c1)CN(c1ccccc1)C2=O)N1CC[C@H](F)C1	parasite growth, Giemsa stain	primary peritoneal mouse macrophages, MHOM/MA(BE)/67 amastigotes	5 d		IC50	> 64 µM
CCOC(=O)c1c(C#N)c(-c2cn(C)c3cccc(OCc4ccccc4)c23)n(NC(=O)OC(C)(C)C)c1C	parasite growth		20 µM, 72 h, promastigote		inhibition	35.6%
